Experimental data of several laboratories.
Lines come from different studies, so protocols differ.
Target: Serine/threonine-protein kinase haspin (HASPIN, Homo sapiens, UniProt Q8TF76)
One construct used (Q8TF76 1-798): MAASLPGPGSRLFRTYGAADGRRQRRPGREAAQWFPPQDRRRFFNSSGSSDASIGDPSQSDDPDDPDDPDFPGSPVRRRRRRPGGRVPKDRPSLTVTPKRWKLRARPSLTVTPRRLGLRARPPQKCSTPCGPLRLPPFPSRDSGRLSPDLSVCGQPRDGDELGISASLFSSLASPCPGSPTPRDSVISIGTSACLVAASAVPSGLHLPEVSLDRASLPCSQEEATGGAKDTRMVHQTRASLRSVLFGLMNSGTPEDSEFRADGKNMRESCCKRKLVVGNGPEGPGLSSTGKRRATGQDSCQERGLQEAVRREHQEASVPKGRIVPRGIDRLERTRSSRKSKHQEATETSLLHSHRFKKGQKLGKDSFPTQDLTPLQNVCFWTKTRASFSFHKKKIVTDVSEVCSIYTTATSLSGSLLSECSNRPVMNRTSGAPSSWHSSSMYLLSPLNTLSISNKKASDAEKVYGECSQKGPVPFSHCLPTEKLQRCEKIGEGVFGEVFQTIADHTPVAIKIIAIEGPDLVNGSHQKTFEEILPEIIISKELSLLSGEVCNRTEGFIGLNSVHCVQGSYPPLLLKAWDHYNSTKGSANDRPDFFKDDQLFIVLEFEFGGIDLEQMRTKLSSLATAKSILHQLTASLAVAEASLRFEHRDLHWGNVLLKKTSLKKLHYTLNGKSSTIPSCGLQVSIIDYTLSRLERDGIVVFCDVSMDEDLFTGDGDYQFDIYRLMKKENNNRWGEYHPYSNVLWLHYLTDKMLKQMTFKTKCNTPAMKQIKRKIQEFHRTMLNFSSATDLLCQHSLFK

| Structure (SMILES) | test | conditions | how to read | measurement | result |
| --- | --- | --- | --- | --- | --- |
| CNC(=O)C1CCN(c2cc(C)c(F)cc2NC(=O)c2ccc(-c3cc(O)ccc3C)c(C)c2)CC1 | binding, competition with immobilised ligand | 1 µM | – | remaining binding | 72% |
| Cc1cc(NC(=O)[C@H](O)c2cc(F)cc(F)c2)ccc1-c1cnc(N)c(C(=O)NC(C)C)c1 | binding, competition with immobilised ligand | 0.1 µM | – | remaining binding | 100% |
| NC(=O)C[C@H]1CCc2sc3ncnc(O[C@H]4CC[C@H](N5CCOCC5)CC4)c3c21 | enzyme activity, inhibitor | 10 µM | – | inhibition | 23% |
| Nc1ncc(-c2cc(-c3cnn(CC(F)(F)F)c3)ncc2F)nc1C(=O)NC1CNCC(F)C1 (centres unmarked) | enzyme activity | 1 µM | relative to: DMSO control | remaining activity | 95.6% |
| CCN1CCN(Cc2ccc(C(=O)Nc3ccc(C)c(NCc4cnc5[nH]ccc5c4OC)c3)cc2C(F)(F)F)CC1 | binding, competition with immobilised ligand | 1 µM | – | remaining binding | 23% |
| CC(C)=CC1OC(C)(C)C2C=C3C(=O)C(Cl)=CC(O)C3C3C(O)C4OC4C(=O)C132 (centres unmarked) | cell-free assay, competition with immobilised ligand | 10 µM | – | remaining binding | 73% |
| CN1CCN(Cc2ccc(-c3ccc(CO[C@H]4CCC[C@@H]4NC(=O)c4cc(-c5cnn(C)c5)cnc4N)cc3)cc2)CC1 | enzyme activity, inhibitor | 0.1 µM | – | inhibition | 6% |
| COc1c(OCCCN2CCOCC2)ccc2c1N=C(NC(=O)c1cnc(N)nc1)N1CCN=C21 | kinase activity, inhibitor | 1 µM | relative to: untreated control | remaining activity | 119% |
| Cc1c[nH]c2nccc(-c3ccc(C(=O)N[C@@H]4c5c(F)cc(C(F)F)cc5C[C@@H]4O)cn3)c12 | binding, competition with immobilised ligand | 3 µM | – | remaining binding | 11% |
| O=C=[N][Ru-4]123([n]4c5ccc(O)cc5c5c6c(c7cc(F)c[n+]1c7c54)C(=O)NC6=O)[S+]1CC[S+]2CC[S+]3CC1 (centres unmarked) | enzyme activity | 100 nM, human enzyme, added: 10 µM ATP | relative to: untreated | remaining activity | 79% |
| C=CC(=O)Nc1cccc(-c2cnc3[nH]cc(C(=O)NC(C)(C)C)c3n2)c1 | enzyme activity, inhibitor | 0.1 µM | – | inhibition | 6% |
| Cc1cccc(O[C@H]2CCC[C@@H](C(C)CNCc3ccncc3)C2)c1 (relative stereo) | enzyme activity, inhibitor | 1 µM | – | inhibition | -3% |
| COc1cc(Nc2nccc(-c3cnn4nc(OC)ccc34)n2)cc(C(F)(F)F)c1 | binding, competition with immobilised ligand | 1 µM | – | remaining binding | 77% |
| C=CC(=O)N1CCCC(n2c(=O)c3ncccc3n(Cc3ccc(Oc4ccccc4)cc3)c2=O)C1 (centres unmarked) | cell-free assay, competition with immobilised ligand | 1 µM | – | remaining binding | 75% |

Excerpt of the above:
| Structure (SMILES) | test | conditions | how to read | measurement | result |
| --- | --- | --- | --- | --- | --- |
| CN1CCN(Cc2ccc(-c3ccc(CO[C@H]4CCC[C@@H]4NC(=O)c4cc(-c5cnn(C)c5)cnc4N)cc3)cc2)CC1 | enzyme activity, inhibitor | 0.1 µM | – | inhibition | 6% |
